Assay results from different studies.
Protocols differ between the studies behind these lines. ± marks the error that the study gave.

| Structure (SMILES) | test system | setting | tissue uptake [%ID/g] |
| --- | --- | --- | --- |
| CC(C)[C@H](NC(=O)[C@@H]1CCCN1C(=O)[C@H](CCCNC(=N)N)NC(=O)[C@H](CS)NC(=O)[C@H](Cc1c[nH]c2ccccc12)NC(=O)[C@H](CCCNC(=N)N)NC(=O)[C@@H](Cc1ccccc1)NC(=O)[C@H](Cc1c[nH]cn1)NC(=O)[C@H](CCC(=O)O)NC(=O)[C@H](CS)NC(=O)[C@H](CS)NC(=O)CNC(=O)[C@@H]1CC(=O)N[C@@H](CCCNC(=N)N)C(=O)NCC(=O)N[C@@H](CC(=O)O)C(=O)N[C@H](Cc2ccc(O)cc2)C(=O)N1)C(N)=O [technetium-99m labelled] | C57 mouse, female, B16/F1 melanoma, muscle | intravenous, 0.037 MBq, 4 h | 0.11 ± 0.09 |
| O=C([O-])CN1CCN(CC(=O)[O-])CCN(CC(=O)NCCc2ccc3c(c2)C2C=CCC2C(c2cc4c(cc2Br)OCO4)N3)CCN(CC(=O)[O-])CC1.[111In+3] (centres unmarked) | mouse, Hec50 endometrial tumour, adrenals | 1 h post injection | 5.02 ± 0.86 |
| CN(C)c1ccc(-c2nc3ccc(OCCCCCN4CCN5CCN(CC4)CC(=O)[O][Al]([18F])[O]C(=O)C5)cc3s2)cc1 | ICR mouse, pancreas | intravenous, 60 min | 1.14 ± 0.7 |
| CCCC[C@H](NC(=O)CNC(=O)CNC(=O)CN1CCN(CC(=O)O)CCN(CC(=O)O)CCN(CC(=O)O)CC1)C(=O)N[C@H]1CC(=O)NCCCC[C@@H](C(N)=O)NC(=O)[C@H](Cc2c[nH]c3ccccc23)NC(=O)[C@H](CCCNC(=N)N)NC(=O)[C@@H](Cc2ccccc2)NC(=O)[C@H](Cc2c[nH]cn2)NC1=O [lead-203 labelled] | C57 mouse, skin | intravenous, 0.056 MBq, 2 h | 0.27 ± 0.1 |
| CCCC[C@H](NC(=O)CNC(=O)CNC(=O)CN1CCN(CC(=O)O)CCN(CC(=O)O)CC1)C(=O)N[C@H]1CC(=O)NCCCC[C@@H](C(N)=O)NC(=O)[C@H](Cc2c[nH]c3ccccc23)NC(=O)[C@H](CCCNC(=N)N)NC(=O)[C@@H](Cc2ccccc2)NC(=O)[C@H](Cc2c[nH]cn2)NC1=O [copper-64 labelled] | female C57 mouse, B16/F1 melanoma, heart | intravenous, 0.037 MBq, 2 h | 0.24 ± 0.13 |
| CC(C)[C@H](NC(=O)[C@@H]1CCCN1C(=O)[C@H](CCCNC(=N)N)NC(=O)[C@H](CS)NC(=O)[C@H](Cc1c[nH]c2ccccc12)NC(=O)[C@H](CCCNC(=N)N)NC(=O)[C@@H](Cc1ccccc1)NC(=O)[C@H](Cc1c[nH]cn1)NC(=O)[C@H](CCC(=O)O)NC(=O)[C@H](CS)NC(=O)[C@H](CS)NC(=O)[C@@H]1CC(=O)N[C@@H](CCCNC(=N)N)C(=O)NCC(=O)N[C@@H](CC(=O)O)C(=O)N[C@H](Cc2ccc(O)cc2)C(=O)N1)C(N)=O [technetium-99m labelled] | C57 mouse, female, B16/F1 melanoma, tumor | intravenous, 0.037 MBq, 0.5 h | 9.46 ± 1.07 |
| CCCC[C@H](NC(=O)CNC(=O)CNC(=O)CN1CCN(CC(=O)O)CCN(CC(=O)O)CCN(CC(=O)O)CC1)C(=O)N[C@H]1CC(=O)NCCCC[C@@H](C(N)=O)NC(=O)[C@H](Cc2c[nH]c3ccccc23)NC(=O)[C@H](CCCNC(=N)N)NC(=O)[C@@H](Cc2ccccc2)NC(=O)[C@H](Cc2c[nH]cn2)NC1=O [copper-64 labelled] | female C57 mouse, B16/F1 melanoma, bone | intravenous, 0.037 MBq, 0.5 h | 1.07 ± 0.24 |
| CN1C(=O)[C@@H](Cc2ccc(O)c(I)c2)NC(=O)CNC(=O)[C@H](Cc2ccc3ccccc3c2)NC(=O)[C@H](CCCNC(=N)N)NC(=O)[C@H]1CCCNC(=O)c1ccc(CNC(=O)CN2CCN(CC(=O)O)CCN(CC(=O)O)CCN(CC(=O)O)CC2)cc1 [lutetium-177 labelled] | female CB-17 SCID mouse, Daudi xenograft, tumor | intravenous, 6 h, CXCR4 blocking, added: AMD3100 2 mg/kg coinjected | 0.43 ± 0.02 |

Some of these lines once more:
| Structure (SMILES) | test system | setting | tissue uptake [%ID/g] |
| --- | --- | --- | --- |
| CN1C(=O)[C@@H](Cc2ccc(O)c(I)c2)NC(=O)CNC(=O)[C@H](Cc2ccc3ccccc3c2)NC(=O)[C@H](CCCNC(=N)N)NC(=O)[C@H]1CCCNC(=O)c1ccc(CNC(=O)CN2CCN(CC(=O)O)CCN(CC(=O)O)CCN(CC(=O)O)CC2)cc1 [lutetium-177 labelled] | female CB-17 SCID mouse, Daudi xenograft, tumor | intravenous, 6 h, CXCR4 blocking, added: AMD3100 2 mg/kg coinjected | 0.43 ± 0.02 |
